Published values gathered from unrelated publications.
Lines come from different studies, so protocols differ.
Target: Serine/threonine-protein kinase NLK (NLK, Homo sapiens, UniProt Q9UBE8)

Structure (SMILES)	assay	test system	conditions	how to read	endpoint	value
CN1CCN(Cc2ccc(-c3ccc(CO[C@H]4CCC[C@@H]4NC(=O)c4cc(-c5cnn(C)c5)cnc4N)cc3)cc2)CC1	enzyme activity, inhibitor		0.1 µM		inhibition	18%
COc1cc(Nc2nccc(-c3cnn4nc(OC)ccc34)n2)cc(C(F)(F)F)c1	binding, competition with immobilised ligand		1 µM		remaining binding	97%
NC(=O)[C@@H](O)C[C@H]1CCc2sc3ncnc(O[C@H]4CC[C@H](N5CCOCC5)CC4)c3c21	enzyme activity, inhibitor		10 µM		inhibition	0%
Cc1ccc(-c2c(/C=C(\C#N)C(=O)NC(C)C)n(CCCO)c3ncnc(N)c23)cc1	cell-free assay, competition with immobilised ligand		1 µM		remaining binding	72%
C=CC(=O)N1Cc2nc(-c3cc(-c4cc(Cl)cnc4Cl)c(F)cc3F)n(-c3ccncn3)c2C1	cell-free assay		1 µM		inhibition	0.5%
CCn1cc(C(=O)O)c(=O)c2c(N)c(F)c(NC3CCCCC3)cc21	kinase activity		0.1 µM, together with: ATP at Km		inhibition	5.7%
CNC(=O)C[C@H](Cc1ccc(C#N)cc1)NC(=O)c1cc(-c2ccc(CN[C@H](C)c3ccc(C)cc3)o2)ccc1Cl	enzyme activity, inhibitor		1 µM		activity vs control	100%
C=CC(=O)N1CCc2ccc(-n3c(=O)ccc4cnc5ccc(-c6cnn(C)c6)cc5c43)cc21	KINOMEscan		1 µM	relative to: DMSO control	remaining binding	100%
Nc1ncc2c(n1)-c1c([nH]c3ccc(C4=CCOCC4)cc13)CCC2	binding, competition with immobilised ligand		1 µM		remaining binding	100%
CCN1CCN(Cc2ccc(NC(=O)c3ccc(C)c(NC(=O)c4cncc(-c5cccs5)c4)c3)cc2C(F)(F)F)CC1	binding, competition with immobilised ligand		1 µM		remaining binding	20%
O=C=[N][Ru-4]123([n]4c5ccc(O)cc5c5c6c(c7cc(F)c[n+]1c7c54)C(=O)NC6=O)[S+]1CC[S+]2CC[S+]3CC1 (stereo not drawn)	enzyme activity		100 nM, human enzyme, together with: 10 µM ATP	relative to: untreated	remaining activity	104%
COc1c(Cl)cccc1Nc1c(-c2ccncc2C#C[C@@]2(C)CCCN2C(=O)/C=C/CN(C)C)[nH]c2c1C(=O)NCC2	binding, competition with immobilised ligand		3 µM		remaining binding	4.1%
CNC(=O)C1CCN(c2cc(C)c(F)cc2NC(=O)c2ccc(-c3cc(O)ccc3C)c(C)c2)CC1	binding, competition with immobilised ligand		1 µM		remaining binding	100%
CS(=O)(=O)Nc1cccc(-c2csc3cnc(Nc4ccc(N5CCN(CCCCCOc6cccc7c6C(=O)N(C6CCC(=O)NC6=O)C7=O)CC5)cc4)nc23)c1 (stereo not drawn)	probe labelling, inhibitor, KiNativ chemoproteomics	MOLT-4	1 µM		inhibition	3.62%
Cc1cnc2nc1Nc1cccc(c1)COC/C=C/COCc1cc(ccc1OCCN1CCOCC1)N2	binding		0.1 µM		remaining binding	100%

A few entries again:
Structure (SMILES)	assay	test system	conditions	how to read	endpoint	value
COc1c(Cl)cccc1Nc1c(-c2ccncc2C#C[C@@]2(C)CCCN2C(=O)/C=C/CN(C)C)[nH]c2c1C(=O)NCC2	binding, competition with immobilised ligand		3 µM		remaining binding	4.1%
CNC(=O)C1CCN(c2cc(C)c(F)cc2NC(=O)c2ccc(-c3cc(O)ccc3C)c(C)c2)CC1	binding, competition with immobilised ligand		1 µM		remaining binding	100%
